# Measured values of several laboratories.
# Protocols differ between the studies behind these lines. Values joined by “and” are separate records of one study, mostly repeats; a detail may differ. ± gives the spread as reported.
Compound,assay,system,setting,how to read,endpoint,result
CCCCCC1=C(NCC)C(=O)C(C/C=C(\C)CCC=C(C)C)=C(O)C1=O,"RNA-Seq, refers to: Ifit1 mRNA","mice, AAV9-A53T α-synuclein lesion, lesioned striatum","oral, dose not given",baseline: vehicle-treated lesioned mice,log2 fold change,1.48
Cc1ccc(S(=O)(=O)N2CC2C(=O)N(C)C)cc1 (centres unmarked),,"mouse, Lewis lung carcinoma","intraperitoneal, 170 mg/kg, 16 doses, day 16",,tumour growth inhibition,48%
Cc1ccc(C2=CC(C)(C)Oc3ccc(-c4ccc(-c5ccc(C(=O)O)cc5)[nH]4)cc32)cc1,,CD1 mouse male,"oral, dose not given",,time to infertility,≤ 4 weeks
CC(C)[C@H](NC(=O)[C@H](CCCNC(=N)N)NC(=O)[C@@H]1CCCN1C(=O)[C@@H](NC(=O)[C@H](C)NC(=O)[C@H](Cc1ccc(O)cc1)NC(=O)[C@H](CCC(N)=O)NC(=O)[C@H](CCCCN)NC(=O)[C@H](CCCNC(=N)N)NC(=O)[C@@H]1CCCN1C(=O)[C@H](CCC(=O)O)NC(=O)[C@@H](NC(=O)[C@H](C)N)[C@@H](C)O)[C@@H](C)O)C(=O)N[C@@H](Cc1ccccc1)C(=O)N[C@@H](Cc1c[nH]c2ccccc12)C(=O)N[C@H](C(=O)N[C@@H](CC(=O)O)C(=O)N[C@@H](C)C(=O)N1CCC[C@H]1C(=O)NCC(=O)NCCOCCOCCOCCOCCOCCOCCOCCOCCOCCOCCOCCOCCC(=O)N[C@@H](CS)C(N)=O)[C@@H](C)O,phage binding,NSCLC cell line panel,selectivity at least 20,,number of cell lines,6
O=c1n(CCNCCOS(=O)(=O)c2ccccc2)c(=O)n(S(=O)(=O)c2ccccc2)c(=O)n1S(=O)(=O)c1ccccc1,DPPH scavenging,,125 µg/mL,,inhibition,49%
CCc1nnc(-c2c(OC)cc(-c3cnc4cc(-c5cnn(C)c5)ccn34)cc2OC)o1,histomorphometry,"male C57BL/6J mouse, tibia","oral gavage, 40 mg/kg once daily, 3 wk",,trabecular bone volume fraction,19.6 ± 3.35%
CN[C@@H]1C[C@H]2O[C@@](C)([C@@H]1OC)n1c3ccccc3c3c4c(c5c6ccccc6n2c5c31)C(=O)NC4,annexin V flow cytometry,"pancreatic islet cells, mouse","1 µM, 24 h",,necrotic cells,0%
CC(C)C[C@H](N)C(=O)N[C@@H](CCC(=O)O)C(=O)N[C@@H](CCC(=O)O)C(=O)N[C@@H](CCCCN)C(=O)N[C@@H](CCCCN)C(=O)N[C@@H](Cc1ccc(O)cc1)C(=O)N[C@@H](CC(N)=O)C(=O)N[C@@H](Cc1ccc(O)cc1)C(=O)N[C@H](C(=O)N[C@H](C(=O)N[C@H](C(=O)N[C@@H](CC(=O)O)C(=O)N[C@@H](Cc1c[nH]cn1)C(=O)O)[C@@H](C)O)C(C)C)C(C)C,,"mouse, GL261/vIII intracranial glioma","subcutaneous, 100 µg, days 0, 7, 14, added: Montanide",,median survival,42 days
CCN(Cc1ccccc1)C(=O)CCc1nc(CN2CCN(C(=O)Cc3ccc(OC)c(OC)c3)CC2)no1,current clamp,"DRG neurons, naive rat",3 µM,,action potential threshold,-4.87 ± 1.65 mV
COc1ccccc1-c1n[nH]c2nc(N[C@H]3CC[C@H](NS(=O)(=O)CC(C)C)CC3)ncc12,"bead binding, competition bead pull-down, refers to: LINJ.34.0080",Leishmania donovani extract,10 µM,baseline: vehicle,relative abundance,0.98
O=C(O)c1ccc(-c2nc(-c3ccccc3Cl)c3sccn23)cc1,,mouse,"dose not given, day 11, added: 5-fluorouracil",baseline: body weight,spleen weight,0.0051% and 0.0035% and 0.0048% and 0.0043%
O=C(NCc1cc(F)cc(F)c1)[C@@]1(O)CCN(c2ccc3[nH]ccc3c2)C1=O,,sample B PDX mouse,"dose not given, RTV endpoint 500%",,median survival time,16 days
COc1ccccc1-c1n[nH]c2nc(NC3CCN(C(=O)Cc4ccc(F)cc4F)CC3)ncc12,"bead binding, competition bead pull-down, refers to: LINJ.36.5330",Leishmania donovani extract,10 µM,baseline: vehicle,relative abundance,1.01
CC(C)C[C@@H]1NC(=O)[C@@H](Cc2c[nH]c3ccccc23)NC(=O)[C@H](CCCNC(=N)N)NC(=O)[C@@H](CCC(=O)O)NC(=O)[C@H](CCC(N)=O)NC(=O)[C@@H](CCC(=O)O)NC(=O)[C@H](CCCNC(=N)N)NC(=O)[C@@H](Cc2c[nH]c3ccccc23)NC1=O,"Luminex, refers to: MIP-1beta","LDLr-/- mouse, Western diet, liver","dose not given, 4 weeks",,CCL4 level,3000 ± 1800 pg/g tissue
Cc1cc(NC(=O)C(=O)N2C[C@@H](C)CC[C@@H]2c2ccc3scnc3c2)cnc1N,,"mouse, U-87 MG MTAP-null orthotopic glioblastoma","oral, dose not given",,median survival increase,3 fold
CC(=O)NCSC[C@H](NC(=O)[C@@H]1CCCN1C(=O)[C@H](C)NC(=O)[C@@H](NC(=O)CNC(=O)[C@@H](NC(=O)[C@H](Cc1c[nH]c2ccccc12)NC(=O)[C@H](C)NC(=O)CNC(=O)[C@H](CO)NC(=O)[C@H](C)NC(=O)[C@@H]1CCCN1C(=O)[C@H](Cc1c[nH]c2ccccc12)NC(=O)[C@H](C)NC(=O)[C@H](C)NC(=O)[C@@H](N)Cc1ccc(O)cc1)[C@@H](C)O)[C@@H](C)O)C(=O)N[C@@H](CO)C(=O)N[C@@H](C)C(=O)NCC(=O)N[C@H](C(=O)NCCOCCOCCOCCOCCOCCOCCOCCOCCOCCOCCOCCOCCC(=O)N[C@@H](CS)C(N)=O)[C@@H](C)O,phage binding,NSCLC cell line panel,selectivity at least 20,,number of cell lines,8
O=S(=O)(N[C@H]1CCO[C@@H](C2c3ccc(F)cc3CCc3cc(F)ccc32)C1)c1ccc(OC(F)(F)F)cc1,,"mouse, orthotopic D425 medulloblastoma","oral gavage, 75 mg/kg twice daily",,median survival,14.5 days

# A few entries again:
Compound,assay,system,setting,how to read,endpoint,result
CCc1nnc(-c2c(OC)cc(-c3cnc4cc(-c5cnn(C)c5)ccn34)cc2OC)o1,histomorphometry,"male C57BL/6J mouse, tibia","oral gavage, 40 mg/kg once daily, 3 wk",,trabecular bone volume fraction,19.6 ± 3.35%
